Earlier results, collected from citations in different studies.
Each line is one published result; not all experiments were run side by side. Numbers after ± are the reported error. In brackets after ≈: the same amount, converted by molar mass.

C[C@@H]1CCN(C(=O)CC#N)C[C@@H]1N(C)c1ncnc2[nH]ccc12  AUC increase (hepatic impairment patients; oral, 10 mg; baseline: healthy subjects): 72.6%
CC[C@@H](C)[C@@H](NC(=O)[C@@H](CCCCN)NC(=O)[C@@H](CCCCN)NC(=O)[C@@H](Cc1ccccc1)NC(=O)[C@@H](CC(C)C)NC(=O)[C@@H](CCCCN)NC(=O)[C@H](N)CCCCN)C(=O)N[C@H](CC(C)C)C(=O)N[C@H](CCCCN)C(=O)N[C@H](Cc1ccc(O)cc1)C(=O)N[C@@H](CC(C)C)C(N)=O  hemolysis (horse erythrocytes 5 % v/v; 150 µM): 1 ± 1.2%
CC1(COc2ccc3c(c2)ncn3-c2ccc3cccc(N4CCC(N)CC4)c3n2)COC1  tumour-to-unbound plasma ratio (microdialysis; mouse, high-grade glioma model, tumour extracellular fluid; dose not given): ~63%
NC12CC3CC(CC(C3)C1)C2  Cmax (plasma; concentration not given): 1700 nM
NC(=O)N1c2ccccc2C=Cc2ccccc21  aqueous solubility (water; hydrate form): 130 µg/mL (≈ 550 µM)
CC1(C)S[C@@H]2[C@H](NC(=O)[C@H](N)c3ccc(O)cc3)C(=O)N2[C@H]1C(=O)O  Cmax (plasma; concentration not given): 14100 nM
Nc1nc2c(nc(Sc3ccc(Cl)cc3)n2C2OC3COP(O)(=S)OC3C2O)c(=O)[nH]1 (centres unmarked)  Km or Ki (PDE1B; cyclic nucleotide hydrolysis, substrate or inhibitor, isothermal titration calorimetry): 2.1 µM
Cc1ccc(Nc2nccc(N(C)c3ccc4c(C)n(C)nc4c3)n2)cc1S(N)(=O)=O  patients with neutropenia (patients; dose not given, all grades): 34%
COc1cc2nc(N3CCN(C(=O)c4ccco4)CC3)nc(N)c2cc1OC  pKa (ionic strength 10 mM): 7.14
O=C1c2cccc3c2[C@H](CCC3)CN1[C@@H]1CN2CCC1CC2  half-life (patients, plasma; oral, dose not given, netupitant-palonosetron combination, with: docetaxel 75 to 100 mg/m^2 IV): 65.7 h
C[C@@H]1CCO[C@H]2Cn3cc(C(=O)NCc4ccc(F)cc4F)c(=O)c(O)c3C(=O)N12  AUC(0-inf) (healthy, mostly White or Black; 50 mg, single dose, fasted, with: abacavir 600 mg, lamivudine 300 mg): 47100 ng·h/mL
CNC(=O)c1cc(Oc2ccc(NC(=O)Nc3ccc(Cl)c(C(F)(F)F)c3)cc2)ccn1  beating cessation concentration (hiPSC-derived cardiomyocytes; 72 h, tested 0 to 100 µM): 3.7 µM
CN(C)CCCC1(c2ccc(F)cc2)OCc2cc(C#N)ccc21 (centres unmarked)  mean concentration ratio (human; baseline: patients over 65 years over younger): 2 fold
CC[C@@H]1CN(C(=O)NCC(F)(F)F)C[C@@H]1c1cnc2cnc3[nH]ccc3n12  AUC increase (population pharmacokinetics; rheumatoid arthritis patients, mild renal impairment; dose not given; baseline: normal renal function): 16%
C#Cc1cccc(Nc2ncnc3cc(OCCOC)c(OCCOC)cc23)c1  absorption rate constant (children; 120 mg/m^2/day, mean of two days): 0.59 h⁻¹
CN(C)C(=O)c1cc2cnc(Nc3ccc(N4CCNCC4)cn3)nc2n1C1CCCC1  unbound concentration (recurrent glioblastoma patients, CSF; oral, 900 mg/day, 5 days): 370 nM
O=C(O)c1cc(O)c(O)c(O)c1  Cmax (plasma; concentration not given): 2000 nM
CNC(=O)c1cccc2cc(Oc3ccnc4cc(OCC5(N)CC5)c(OC)cc34)ccc12  plasma concentration (human patients; oral, 10 mg daily, 21 days, trough): 430 nM
Cc1ccccc1-c1cc(N2CCN(C)CC2)ncc1N(C)C(=O)C(C)(C)c1cc(C(F)(F)F)cc(C(F)(F)F)c1  half-life (healthy volunteers, plasma; oral, 450 mg, single dose, given alone): 90.4 h
Cc1ccc(C)c(OCCCC(C)(C)C(=O)O)c1  maximum whole-body concentration (juvenile Chinook salmon, whole body wet weight; concentration not given, field-collected): 1.3 ng/g
COc1ccnc(C[S+]([O-])c2nc3ccc(OC(F)F)cc3[nH]2)c1OC (centres unmarked)  lag time (nonobese children, 12–17 years; oral): 1 h
CC(C)(CO)c1cc(NC(=O)Nc2ccc(-c3cn4c(n3)sc3cc(OCCN5CCOCC5)ccc34)cc2)no1  metabolite to parent ratio (patients with AML; repeated daily dosing): ~0.6
Nc1nc2c(nc(Sc3ccc(Cl)cc3)n2C2O[C@@H]3COP(=O)(O)O[C@H]3[C@H]2O)c(=O)[nH]1 (stereo in doubt)  log Kw (methanol/water): 2.52
CCCCc1oc2ccccc2c1C(=O)c1cc(I)c(OCCN(CC)CC)c(I)c1  diarrhoea incidence (human; concentration not given, clinical): < 2%
C[C@H]1c2cccc(O)c2C(=O)C2=C(O)[C@]3(O)C(=O)C(C(N)=O)=C(O)[C@@H](N(C)C)[C@@H]3[C@@H](O)[C@@H]21  aqueous solubility (water; hydrate form): 1800 µg/mL (≈ 4050 µM)
CN1Cc2c(Cl)cc(Cl)cc2[C@H](c2cccc(S(=O)(=O)NCCOCCOCCNC(=O)NCCCCNC(=O)NCCOCCOCCNS(=O)(=O)c3cccc([C@@H]4CN(C)Cc5c(Cl)cc(Cl)cc54)c3)c2)C1  serum concentration (human; oral, 180 mg single or 15 to 90 mg twice daily, 7 days): < 0.5 ng/mL
Nc1ccn([C@@H]2CS[C@H](CO)O2)c(=O)n1  AUC(0-t) (healthy human volunteers; oral, 300 mg single dose, fasted, with: abacavir 600 mg, dolutegravir 50 mg): 12700 ng·h/mL
Cc1c(O)cccc1C(=O)N[C@@H](CSc1ccccc1)[C@H](O)CN1C[C@H]2CCCC[C@H]2C[C@H]1C(=O)NC(C)(C)C  Cmax (plasma; concentration not given): 6000 nM
O=C(O)CNC(=O)c1ccccc1[131I]  percent injected dose (normal rat, blood; 60 min, with: co-injected 99mTc-1): 0.5 %ID
CCS(=O)(=O)N1CC(CC#N)(n2cc(-c3ncnc4[nH]ccc34)cn2)C1  AUC(0-inf) ratio (healthy humans; concentration not given, with: probenecid; baseline: with over without probenecid): 2 fold
CCN(CC)CCNC(=O)c1c(C)[nH]c(/C=C2\C(=O)Nc3ccc(F)cc32)c1C  placebo-adjusted QTcB prolongation (patients; 50 mg daily, 24 h post-dose day 3, maximum time-matched): 7.9 ms
O[C@@H](COc1cccc2ncccc12)CN1CCN([C@@H]2c3ccccc3[C@@H]3[C@H](c4ccccc42)C3(F)F)CC1  plasma concentration (female Sprague-Dawley rats, plasma; iv bolus, 6 mg/kg, 2 h): ~1000 ng/mL
CC[C@H](C)[C@H](NC(=O)[C@H](CCCCN)NC(=O)[C@H](CCCCN)NC(=O)[C@H](Cc1ccccc1)NC(=O)[C@H](CC(C)C)NC(=O)[C@H](CCCCN)NC(=O)[C@@H](N)CCCCN)C(=O)N[C@@H](CC(C)C)C(=O)N[C@@H](CCCCN)C(=O)N[C@@H](Cc1ccccc1)C(=O)N[C@@H](CC(C)C)C(N)=O  hemolysis (horse erythrocytes 5 % v/v; 150 µM): 34 ± 2.1%
Ac-GAVILRR-NH2 (N-acetyl, C-amide)  critical aggregation concentration (dynamic light scattering; peptide, water): 3.09 -log M
CCC(C)C(CC)C(N)=O (centres unmarked)  exposure margin (rat, plasma; modest teratogenic signal, unit not given; baseline: over suggested therapeutic plasma level): 15
COc1cc2c(Nc3ccc(Br)cc3F)ncnc2cc1OCC1CCN(C)CC1  beating cessation concentration (hiPSC-derived cardiomyocytes; 72 h, tested 0 to 100 µM): 33 µM
CC(C)C(=O)OCC(=O)[C@@]12O[C@H](C3CCCCC3)O[C@@H]1C[C@H]1[C@@H]3CCC4=CC(=O)C=C[C@]4(C)[C@H]3[C@@H](O)C[C@@]12C  lung deposition (adults with asthma; inhaled, HFA-MDI without spacer): 53.2%
C=Cc1ccccc1  plasma concentration (exposed polymer industry workers, plasma; concentration not given): ≤ 22000 nM
CC1=NS(=O)(=O)c2cc(Cl)ccc2N1  Cmax (plasma; concentration not given): 152000 nM
O=C(/C=C/C=C/c1ccc2c(c1)OCO2)N1CCCCC1  inhibition (nevirapine elimination rate, measured: nevirapine; human; 20 mg, with: nevirapine 200 mg): no inhibition
O=C(NCCN1C(=O)C=CC1=O)c1ccc([18F])cc1  tumour uptake (mouse, INS1 tumour, tumour; [Cys40]-exendin-4 conjugate): 30.3 ± 5.44 %ID/g
CC[C@H](C)[C@H](NC(=O)[C@H](C)N)C(=O)N[C@H](C(=O)NCC(=O)N[C@@H](CC(C)C)C(=O)N[C@@H](CCSC)C(=O)N[C@H](C(=O)NCC(=O)NCC(=O)N[C@H](C(=O)N[C@H](C(=O)N[C@H](C(=O)N[C@@H](C)C(=O)O)[C@@H](C)CC)C(C)C)C(C)C)C(C)C)[C@@H](C)CC  solubility (filtration; sodium phosphate buffer; pH 7.4): 11 ± 3 µM (≈ 13.3 µg/mL)
N#CC[C@H](C1CCCC1)n1cc(-c2ncnc3[nH]ccc23)cn1  tolerability (healthy human volunteers; oral, 25 mg twice daily): not toxic
Cc1ccc(C(=O)c2cc(O)c(O)c([N+](=O)[O-])c2)cc1  unbound fraction (rapid equilibrium dialysis; hepatocyte culture medium): 0.04 to 0.11
Clc1ccccc1C(c1ccccc1)(c1ccccc1)n1ccnc1  Cmax (plasma; concentration not given): 1020 nM
CC[C@H](C)CCCCC(=O)N[C@@H](CCN)C(=O)N[C@H](C(=O)N[C@@H](CCN)C(=O)N[C@H]1CCNC(=O)[C@H]([C@@H](C)O)NC(=O)[C@H](CCN)NC(=O)[C@H](CCN)NC(=O)[C@H](CC(C)C)NC(=O)[C@@H](Cc2ccccc2)NC(=O)[C@H](CCN)NC1=O)[C@@H](C)O  central volume of distribution (human patients; intravenous, dose not given, two-compartment population PK model): 6.35 L
COc1cccc(-c2c(C)n(Cc3c(F)cccc3C(F)(F)F)c(=O)n(C[C@H](NCCCC(=O)O)c3ccccc3)c2=O)c1F  Cmax ratio (human, Child-Pugh A hepatic impairment; 150 mg single dose, mean observed; baseline: patients over healthy volunteers): 0.8
liraglutide  unbound fraction (human, severe hepatic impairment, plasma; 100 pM): 0.4%
C#Cc1cccc(Nc2ncnc3cc(OCCOC)c(OCCOC)cc23)c1  terminal half-life (human; oral, 150 mg once daily, day 28, 24 h): 24.2 h
COc1cccc(CCc2ccccc2OC[C@H](O)CN(C)C)c1 (racemic)  AUC (human; oral, 100 mg sarpogrelate hydrochloride, single dose, geometric mean): 86.2 ng·h/mL
CCN1C(=O)N(c2c(F)c(OC)cc(OC)c2F)Cc2cnc3[nH]c(CN4CCOCC4)cc3c21  Cmax at steady state (patients with cancer; oral, 6 mg multiple doses, geometric mean): 78.8 nM
OC(Cn1cncn1)(Cn1cncn1)c1ccc(F)cc1F  Cmax (plasma; concentration not given): 21900 nM
Cc1nc2cccc(OCC(C)(C)C(=O)NC(C)C)c2c(N)c1C(=O)O.Cc1nc2cccc(OCC(C)(C)C(=O)NC(C)C)c2c(N)c1C(=O)O.O.O.O=S(=O)(O)O  Cmax (rat, male, plasma; oral gavage, 30 mg/kg, molecular weight corrected; baseline: parent drug): 114%

Some of these lines once more:
C[C@H]1c2cccc(O)c2C(=O)C2=C(O)[C@]3(O)C(=O)C(C(N)=O)=C(O)[C@@H](N(C)C)[C@@H]3[C@@H](O)[C@@H]21  aqueous solubility (water; hydrate form): 1800 µg/mL (≈ 4050 µM)
CC(C)C(=O)OCC(=O)[C@@]12O[C@H](C3CCCCC3)O[C@@H]1C[C@H]1[C@@H]3CCC4=CC(=O)C=C[C@]4(C)[C@H]3[C@@H](O)C[C@@]12C  lung deposition (adults with asthma; inhaled, HFA-MDI without spacer): 53.2%
C[C@@H]1CCN(C(=O)CC#N)C[C@@H]1N(C)c1ncnc2[nH]ccc12  AUC increase (hepatic impairment patients; oral, 10 mg; baseline: healthy subjects): 72.6%
